Measurements pooled from the literature.
A part holds a random share of what one study measured.

Study 1
Target: Myc proto-oncogene protein, bHLH-zipper, MAX partner unstated (MYC, Homo sapiens, UniProt P01106, residues 368-449)
Sequence of UniProt P01106 (368-449, looked up): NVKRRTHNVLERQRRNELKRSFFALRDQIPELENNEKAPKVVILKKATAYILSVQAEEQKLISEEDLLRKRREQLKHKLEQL
Method: protein-binding microarray
Molecule type: double-stranded DNA, one strand shown
Matrix: in vitro
Tested at: not given
Setting: k-mer, scored over probes, only values ≥0.25
Direction: higher = stronger binding
Oligonucleotide | E-score
GACGCCAC | 0.335
CGTGTTAA | 0.297
ACATGTCC | 0.355
CTCGTGGA | 0.438
CGCCACCC | 0.378
GAACGTGC | 0.334
ACGAGGTC | 0.326
ATGCCCGC | 0.278
ACGCCATG | 0.4
CATCACAC | 0.258
ACGCACAT | 0.379
ACCGCGCC | 0.252
CACCCCAC | 0.353
ACTCATGG | 0.312
GCCACGCA | 0.431
AGCCACGA | 0.391
CGTGCCCA | 0.306
GTCCCCAC | 0.254
CGCACGAG | 0.444
CAAGCGTG | 0.402
CTCGTGTC | 0.408
CGTGCCTA | 0.265
CATGTCCG | 0.288
CGTGGATA | 0.36
CATGCGTA | 0.443

Study 2
Target: Histone acetyltransferase KAT6A, winged helix 2, GST fusion (KAT6A, Homo sapiens, UniProt Q92794, residues 85-181)
Method: protein binding microarray
Molecule type: double-stranded DNA, one strand shown
Matrix: in vitro
Tested at: not given
Setting: 8-mer, flanks averaged, mean of 2 arrays, mostly near background
Baseline: not given
Direction: higher = stronger binding
Construct (chain): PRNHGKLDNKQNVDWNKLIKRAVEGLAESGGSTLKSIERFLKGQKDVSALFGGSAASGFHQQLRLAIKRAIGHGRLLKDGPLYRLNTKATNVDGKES
Oligonucleotide | E-score
AATGAGCG | 0.0798
AGGGACTG | -0.21
TCCGCCAA | 0.104
GACTGCCA | 0.0149
TAGTAGCA | 0.0573
AACTTCTT | -0.076
CTCTTGGC | -0.0728
GTCACCCA | 0.014
ATCGTGCA | 0.05
AATCAAGA | -0.0783
AAATATGG | -0.26
CAGATCCA | 0.129
CTAGGAAA | -0.0347
GCTAACAA | 0.0294
CGTAAGAC | -0.0716
TGGCGACA | 0.0521
ATCCTGAA | 0.0307
CCCTGGAC | 0.0505
AATAAGAG | 0.149
CCTCCACG | 0.033
AGCGCCAT | -0.0568
CGTTAGCC | -0.0614
AACTGGGT | -0.0523
CCATGCGC | 0.0407
CTTAGGAA | 0.0304

Study 3
Target: Interferon regulatory factor 5, full length, phosphomimetic (IRF5, Homo sapiens, UniProt Q13568-2, residues 1-514, S451D/S453D/S456D/S462D)
Method: protein-binding microarray
Molecule type: double-stranded DNA, one strand shown
Matrix: in vitro
Tested at: 940 nM top
Setting: 60-bp whole probe
Together with: salmon DNA 0.4 mg/ml
Baseline: random background probes
Direction: higher = stronger binding
All sequences stand within: GCCTAGCAC … GTCTTGATTCGCTTGACGCTGCTG
Oligonucleotide | fitted relative affinity
TTAGGTATCGGGTATCGGTCAGTGCTA | 7.03 z-score
TCAGCATTGCTTCTATAACTGTGCTAG | -0.192 z-score
TTAGAACTGGGGACTGGAGTAGTGCTA | -0.279 z-score
TTAGGTTCCGGTGTCGGTTAGTGCTAG | 2.88 z-score
TCCTCTTTACTGCTCCACACGTGCTAG | 1.12 z-score
TCAGATATCAGTATCGATTAGTGCTAG | 4.85 z-score
TTAGTACTGAGTATCGATTAGTGCTAG | 4.38 z-score
TTAGACCTGGGGTTTCGATTAGTGCTA | 5.52 z-score
TTAGCTCTCAGTCTCGATTAGTGCTAG | 3.71 z-score
TTAGATTTCGGGTTTCTATTAGTGCTA | 2.56 z-score
TCAAGAAAGAAAACGGGGAGGTGCTAG | 0.0704 z-score
GACGGTATCCTTCTCCTTACGTGCTAG | 0.753 z-score
GACGGTTTCGGACTGGGGAAGTGCTAG | 6.6 z-score
TCAATCTTCACTCTTAATTAGTGCTAG | 0.795 z-score
GACAATTTCAGTTCCGAGACGTGCTAG | 1.13 z-score
TCAGAATTAGGTTTCACACTGTGCTAG | 1.72 z-score
AGGAGAGATTAAGTAACTTAGTGCTAG | -0.401 z-score
TCAACTTTTTTTTTTCCACTGTGCTAG | 1.14 z-score
TCATTTCTCCCAAGTCTTACTGTGCTA | 1.31 z-score
TGAGGACTGGGGTATCGGTTAGTGCTA | 2.57 z-score
AACTTTTTTTAATTGAGAAGGTGCTAG | 0.139 z-score
GACGATATCGGGTTGCGAGACGTGCTA | 0.263 z-score

Study 4
Target: RNA binding protein fox-1 homolog 2, RRM domain, GST-SBP tag (RBFOX2, Homo sapiens, UniProt O43251-10, residues 100-194)
Method: RNA Bind-n-Seq
Molecule type: RNA
Matrix: in vitro
Tested at: 365 nM
Setting: natural RNA segment, single round, ends assumed
Baseline: no-protein control
Direction: higher = stronger binding
Construct (chain): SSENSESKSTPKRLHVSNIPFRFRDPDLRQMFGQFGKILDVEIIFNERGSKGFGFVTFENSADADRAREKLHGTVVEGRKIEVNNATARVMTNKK
Oligonucleotide | RBNS enrichment (R)
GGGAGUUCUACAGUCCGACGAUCAAUAUUAGUUAUUCUAAGGAGAAAAAAAUGCUUCUGCAAGAUUUUCAUAAUUCAGGGGCUGUGGAUAGGAUUGUUCCUCUGUUUCCCUAAUCAUUCAUCUGUUCAUGUCUUGGAAUUCUCGGGUGCCAA | 1.93
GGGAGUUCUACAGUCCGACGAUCUUAGUCAGUUUUUAGGGGAUUUUCGGGGAGGGGAAAUAGGUAAUGUAUGGAGCAUUUUCACUUCUAAAUAGUUAGAUACAGAAAUUAAGUGCAUUGUAUCUUUUUCAUAAUGGAAUUCUCGGGUGCCAA | 1.4
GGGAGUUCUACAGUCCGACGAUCAAUGAAUGCGCAGCGUAUGACUGUUGGUGAUAAGUGUAUCUGUGUGAGUGUGUGCAACUACUUGUGUGAGGGCAUGGUAGCUAACGUGUGUAUGAGAUCCUAUAUACCAGUGGAAUUCUCGGGUGCCAA | 16.1
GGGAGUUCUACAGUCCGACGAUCACCAAAUGCAGACAAAUGGGAGAACCAGUUCCCCAGCUUAUGUUAGCAUAGUCAACAGCGAGCAUAAAGACUUUGUCACUUGGAGCGUUACCAGCAGAGUAAAUGUGGCCUGGAAUUCUCGGGUGCCAA | 0.448
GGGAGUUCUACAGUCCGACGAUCCAACUUGUUGGCCUUGUGCUCUGUCACUCUGAGCAUCUAUGGUGAUAAAGAGAAGGAAACGCUGCAGAGGCACAAGCAUAAGCUGGCUUUGAGUCUUUGAAAGCUUGAUGUGGAAUUCUCGGGUGCCAA | 0.667
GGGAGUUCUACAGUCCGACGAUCCUUUAAAAGGUGAAAAGUAUGAUUUCUUACCACUUAAGUAUGAUUGAUAUGAUCCAACAAAUUUGAUCAGAAGCUGUAGGUAAAUCCUCUUCUGAAGCCAAAAUGGUAUAUGGAAUUCUCGGGUGCCAA | 0.399
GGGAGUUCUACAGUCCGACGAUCCUUAACUUGAUUGAACUGUCUAGGAACUUUACAGAUUGUUCUGCAGUUCUCUCUUCUUUUCCUCAGGUAGGACAGCUCUAGCAUUUUCUUAAUCAGGAAUAUUGUGGUAAUGGAAUUCUCGGGUGCCAA | 0.446
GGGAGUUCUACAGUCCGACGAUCAUUUCCCAAGCCAAGCAUCCACUUGUCUGUGUCUGGGAAGGGAUGGCCAAGGCCGCUAGGGUCCUUACCCCUCAGGAUCACUCCCCAGCCCUUUCCUCAGGAGGUACCGCUGGAAUUCUCGGGUGCCAA | 0.267
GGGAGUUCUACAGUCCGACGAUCGCUAAAAAUCCUGUGAAUACAAUACUAUCCUUUACAGGCAGACAUUAUUGGUAAACAAGAUCUUGCCCUCCAAUGAAAUGACUUACAUGUUUUAAAAAACCGAGUUGGUUUGGAAUUCUCGGGUGCCAA | 0.553
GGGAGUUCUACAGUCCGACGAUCAAGAACUCUUAACUGGAAGACGUUGUACUGUUGUGUAGAGCCUGAACCCAAACCCUGCGGUACCCACCCCGGUAGUGGCCAGUCAUCUUGUGCUGACAUUAGCAUUCACCUGGAAUUCUCGGGUGCCAA | 0.403
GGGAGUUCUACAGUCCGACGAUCUCCUUAGCGCAUUAAUGUGAUGCUCACUCUGUGUUAAAACUGCAGCCGUUGUCUUUCUCAACUGCUACUGUCACGUUGCUUUCAAGAAAACAUUUUUUUUCAUUCCAGACUGGAAUUCUCGGGUGCCAA | 0.477
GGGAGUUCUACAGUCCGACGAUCGCUCGGAAGGCCUUGAGAGGGCUGAUGGGGAAGUCACUGAGGAUGAAUCUGUCAUCUCAGGCAAUAAUGUGUAGGUGUCACCAUGAGUCACAUACAGUUCUUUUUAGGCAUGGAAUUCUCGGGUGCCAA | 0.668

Study 5
Target: Sal-like protein 4, full length isoform B (SALL4, Homo sapiens, UniProt Q9UJQ4-2, residues 1-616)
Method: universal PBM
Molecule type: double-stranded DNA, one strand shown
Matrix: in vitro
Tested at: not given
Setting: 8-mer, flanks averaged, mean of replicates
Direction: higher = stronger binding
Target sequence (chain): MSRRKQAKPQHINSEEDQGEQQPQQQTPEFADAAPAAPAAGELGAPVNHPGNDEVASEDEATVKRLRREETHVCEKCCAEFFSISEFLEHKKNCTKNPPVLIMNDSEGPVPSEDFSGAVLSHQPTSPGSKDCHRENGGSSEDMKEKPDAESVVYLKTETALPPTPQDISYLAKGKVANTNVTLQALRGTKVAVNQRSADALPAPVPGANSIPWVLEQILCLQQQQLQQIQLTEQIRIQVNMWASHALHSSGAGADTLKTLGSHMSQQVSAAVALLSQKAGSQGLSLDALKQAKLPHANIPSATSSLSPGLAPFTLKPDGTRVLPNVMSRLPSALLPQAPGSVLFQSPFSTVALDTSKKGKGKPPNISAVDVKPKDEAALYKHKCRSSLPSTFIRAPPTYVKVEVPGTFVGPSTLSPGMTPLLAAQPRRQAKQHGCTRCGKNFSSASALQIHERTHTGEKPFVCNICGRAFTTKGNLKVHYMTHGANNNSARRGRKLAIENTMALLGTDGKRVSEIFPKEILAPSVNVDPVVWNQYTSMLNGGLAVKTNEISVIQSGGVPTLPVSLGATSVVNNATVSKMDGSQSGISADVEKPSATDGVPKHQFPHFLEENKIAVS
Oligonucleotide | E-score
AGTATAAG | 0.275
ACCGAGGG | -0.362
GCATCACC | -0.258
ACGGCATC | -0.117
GAAGGCAA | 0.0697
AGCAAGAT | 0.0298
AACTTCCC | -0.0932
CCTGGGGA | -0.287
GTAGCCAC | -0.17
CAACAAGG | 0.0475
TTGTAAAA | 0.199
ACGAGTAA | 0.0994
GGGAAATA | 0.16
AGCGAGCG | -0.165
ACAGACGC | -0.106
GTACTCGA | -0.0627
CTCTTTTC | 0.00183
GCCGCTTA | -0.161
AAACGCTT | 0.0353
CTCCCGTC | -0.142
AGTCCATC | 0.0139
ATTGCCCC | 0.0283
ACAGCAAT | 0.237
AATGAGTG | 0.197
CCTTTAGC | -0.071

Excerpt of the above (study 2):
Oligonucleotide | E-score
ATCCTGAA | 0.0307
ATCGTGCA | 0.05
CTTAGGAA | 0.0304
AGCGCCAT | -0.0568
GTCACCCA | 0.014
CTAGGAAA | -0.0347
AATAAGAG | 0.149
AATCAAGA | -0.0783
CTCTTGGC | -0.0728
TGGCGACA | 0.0521
TCCGCCAA | 0.104
AGGGACTG | -0.21
CCATGCGC | 0.0407
GACTGCCA | 0.0149
CGTTAGCC | -0.0614
CCTCCACG | 0.033
AAATATGG | -0.26
AATGAGCG | 0.0798
